Results collected from several papers.
Protocols differ between the studies behind these lines.
Medium: plasma

With `COC(=O)C1OC(Oc2c(-c3ccccc3)oc3cc(O)c(O)c(O)c3c2=O)C(O)C(O)C1O` (stereo not shown) the AUC(0-t) was 35.7 ng·h/mL (BALB/c mouse; oral, 10 mg/kg, single dose).
The AUC(0-t) of `COC(=O)c1ccc2c(c1)NC(=O)/C2=C(\Nc1ccc2c(c1)CCN2C(=O)CN1CCOCC1)c1ccccc1` is reported as 6640 ng·h/mL (CD-1 mouse; intravenous, 10 mg/kg).
For `COc1cc(N2CCN(C(=O)C3CCCN3)CC2)ccc1Nc1ncc(Cl)c(Nc2ccccc2P(C)(C)=O)n1` (stereo not shown), the AUC(0-t) was 4900 ng·h/mL (mouse; oral, 10 mg/kg).
`C[N+]1(CC(=O)OC2CCCCCCCCCCC2)CCCCC1` gave an AUC(0-t) of 180 ng·h/mL (mouse; intraperitoneal, 2.5 mg/kg, single dose).
`Cc1ccc2oc(-c3c4c(N)n[nH]c(=O)c4nn3-c3ccc(NC(=O)/C=C/CN(C)C)cc3)c(C)c2c1` has an AUC(0-t) of 699 ng·h/mL (mouse; intraperitoneal, 3 mg/kg).
With `Brc1ccccc1-c1nnc(CSc2nnnn2-c2ccccc2)o1` the AUC(0-t) was 1.58 µM·h (male C57BL/6 mouse; intraperitoneal, 10 mg/kg).
The AUC(0-t) of `N#Cc1cnc2cc(OCC3CCNCC3)c(F)cc2c1Nc1cc(F)c(OCc2cccc(Cl)n2)cc1Cl` is reported as 3680 ng·h/mL (female CD-1 mouse; oral, 20 mg/kg).
The AUC(0-t) of `C[C@H]1CN(C(=O)c2cn(-c3ccnc(N)n3)c3cc(C#CC4(O)CCCCC4)ccc23)CCN1` is reported as 264 ng·h/mL (CD-1 mouse; intravenous, 1 mg/kg).
With `CN1/C(=C/C=C/c2cc(-c3ccccc3)cc(-c3ccccc3)[o+]2)C(C)(C)c2ccccc21` the AUC(0-t) was 26.9 ng·h/mL (male CD-1 mouse; intravenous, 1 mg/kg, single dose).
`Cc1ccc(CNC(=O)Cc2ccc(-c3ccc(OCCN4CCOCC4)cc3)cn2)cc1` has an AUC(0-t) of 940 ng·h/mL (CD-1 mouse; oral, 10 mg/kg).
`C=CC(=O)Nc1cccc(Cn2ncc3cnc(Nc4cnn(CCOC)c4)nc32)c1` gave an AUC(0-t) of 801 ng·h/mL (male BALB/c mouse; oral, 30 mg/kg).
For `CN1CC[C@H](c2c(O)cc(O)c3c(=O)cc(/C=C/c4c(Cl)cccc4Cl)oc23)[C@H](O)C1`, the AUC(0-t) was 3600 ng·h/mL (male BALB/c mouse; oral, 50 mg/kg).
With `CCC(=C(c1ccc(Cl)cc1)c1ccc(OCCN2CCOCC2)cc1)c1ccc(OC)cc1` the AUC(0-t) was 47800 ng·h/mL (female C57BL/6 mouse; oral, 400 mg/kg, single dose).

Repeated from above:
`Cc1ccc(CNC(=O)Cc2ccc(-c3ccc(OCCN4CCOCC4)cc3)cn2)cc1` has an AUC(0-t) of 940 ng·h/mL (CD-1 mouse; oral, 10 mg/kg).
